Published values gathered from unrelated publications.
A part holds a random share of what one study measured. Several values in a cell are separate wells, animals, samples, runs or records.
Sequence of UniProt P9WI81 (whole entry, looked up): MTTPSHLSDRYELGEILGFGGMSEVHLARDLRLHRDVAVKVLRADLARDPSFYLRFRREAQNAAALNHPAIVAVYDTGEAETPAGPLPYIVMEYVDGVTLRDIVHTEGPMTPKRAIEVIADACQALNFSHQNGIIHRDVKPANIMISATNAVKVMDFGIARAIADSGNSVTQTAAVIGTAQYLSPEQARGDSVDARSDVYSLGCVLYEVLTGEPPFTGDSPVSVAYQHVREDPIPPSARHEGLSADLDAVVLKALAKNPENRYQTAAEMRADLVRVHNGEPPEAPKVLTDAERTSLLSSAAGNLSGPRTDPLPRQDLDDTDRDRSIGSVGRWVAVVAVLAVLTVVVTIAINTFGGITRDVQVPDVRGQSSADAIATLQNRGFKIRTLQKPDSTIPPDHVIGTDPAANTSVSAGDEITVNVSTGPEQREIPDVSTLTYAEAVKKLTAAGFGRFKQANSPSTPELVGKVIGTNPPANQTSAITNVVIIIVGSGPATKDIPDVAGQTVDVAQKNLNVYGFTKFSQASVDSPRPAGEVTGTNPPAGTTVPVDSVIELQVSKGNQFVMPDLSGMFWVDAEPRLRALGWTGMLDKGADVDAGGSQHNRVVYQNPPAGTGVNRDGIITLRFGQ
Sequence of UniProt P61075 (whole entry, looked up): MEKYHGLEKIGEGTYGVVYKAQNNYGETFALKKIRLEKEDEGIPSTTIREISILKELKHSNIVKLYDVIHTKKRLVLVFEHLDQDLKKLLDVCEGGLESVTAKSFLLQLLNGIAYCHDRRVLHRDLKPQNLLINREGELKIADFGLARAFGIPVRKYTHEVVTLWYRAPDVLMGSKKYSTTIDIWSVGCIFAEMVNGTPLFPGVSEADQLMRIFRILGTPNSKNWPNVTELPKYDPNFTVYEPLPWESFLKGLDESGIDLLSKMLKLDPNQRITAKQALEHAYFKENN

Study 1
Target: Calcium/calmodulin-dependent protein kinase type II subunit alpha (CAMK2A, Homo sapiens, UniProt Q9UQM7)
Sequence of UniProt Q9UQM7 (whole entry, looked up): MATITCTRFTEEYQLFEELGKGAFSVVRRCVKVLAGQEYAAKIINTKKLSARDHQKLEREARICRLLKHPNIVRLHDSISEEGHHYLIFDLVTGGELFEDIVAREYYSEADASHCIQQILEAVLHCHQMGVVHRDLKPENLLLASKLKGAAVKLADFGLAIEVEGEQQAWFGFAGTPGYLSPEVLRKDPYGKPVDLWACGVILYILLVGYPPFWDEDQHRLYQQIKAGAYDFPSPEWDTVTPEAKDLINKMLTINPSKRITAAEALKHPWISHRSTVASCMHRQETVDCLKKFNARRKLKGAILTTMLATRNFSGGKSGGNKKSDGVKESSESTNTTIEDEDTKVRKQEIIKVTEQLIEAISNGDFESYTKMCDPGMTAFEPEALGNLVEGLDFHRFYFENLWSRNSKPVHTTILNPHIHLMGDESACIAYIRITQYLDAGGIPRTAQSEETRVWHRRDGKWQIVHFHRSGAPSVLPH
Read-out: enzyme activity
Mode: inhibitor
Tested at: 10 µM
For `O=C(CNC(=O)c1ccc(C2=NOC(c3cc(Cl)cc(C(F)(F)F)c3)(C(F)(F)F)C2)c2ccccc12)NCC(F)(F)F` (centres unmarked), the inhibition was -7%.
The inhibition of `CN[C@@H]1C[C@H]2O[C@@](C)([C@@H]1OC)n1c3ccccc3c3c4c(c5c6ccccc6n2c5c31)C(=O)NC4` is reported as 88%.
With `COc1cc([C@@H]2c3cc4c(cc3C(=O)[C@H]3COC(=O)[C@H]23)OCO4)cc(OC)c1OC` the inhibition was -71%.
`CC1=C[C@H]2[C@@]3(O)[C@H](C)[C@@H](O)[C@]4(O)[C@H]([C@@H]3C=C(CO)C[C@]2(O)C1=O)C4(C)C` gave an inhibition of -6%.

Study 2
Cell line: mouse MPNST tumor cells
Method: high-content immunofluorescence imaging
Refers to: nuclear SOX9
Tested at: 10 µM
Time: 12 h
Notes: mean of 2 replicates
Reference: DMSO control
Reading: higher = more nuclear SOX9
For `CCCN(CCC)[C@@H]1CCc2cccc(O)c2C1`, “nuclear SOX9 intensity” read 101 % of DMSO.
`C[C@]12CC[C@H]3[C@@H](CCC4=CC(=O)CC[C@@H]43)[C@@H]1CC[C@@H]2O`: “nuclear SOX9 intensity” 75.7 % of DMSO.
For `CC12CC(=O)C3C(CCC4=CC(=O)CCC43C)C1CCC2=O` (centres unmarked), “nuclear SOX9 intensity” read 83.8 % of DMSO.
Under “nuclear SOX9 intensity”, `C[C@@H]1C[C@@H]([C@H](O)CC2CC(=O)NC(=O)C2)C(=O)[C@@H](C)C1` is recorded as 72.4 % of DMSO.
`COc1ccc(CCN)cc1OC`: “nuclear SOX9 intensity” 90.5 % of DMSO.
Under “nuclear SOX9 intensity”, `CN1C[C@H](C(=O)N[C@]2(C)O[C@@]3(O)[C@@H]4CCCN4C(=O)[C@H](Cc4ccccc4)N3C2=O)C[C@@H]2c3cccc4[nH]cc(c34)C[C@H]21` is recorded as 122 % of DMSO and 120 % of DMSO and 119 % of DMSO.
`CN(C)c1ccc(/C=C2\CCCN=C2c2cccnc2)cc1`: “nuclear SOX9 intensity” 93.5 % of DMSO.
`NCCCNCCSP(=O)(O)O`: “nuclear SOX9 intensity” 106 % of DMSO.

Study 3
Target: CRBN/Zinc finger protein Helios (Homo sapiens, UniProt Q96SW2+Q9UKS7)
Sequence of UniProt Q9UKS7 (whole entry, looked up): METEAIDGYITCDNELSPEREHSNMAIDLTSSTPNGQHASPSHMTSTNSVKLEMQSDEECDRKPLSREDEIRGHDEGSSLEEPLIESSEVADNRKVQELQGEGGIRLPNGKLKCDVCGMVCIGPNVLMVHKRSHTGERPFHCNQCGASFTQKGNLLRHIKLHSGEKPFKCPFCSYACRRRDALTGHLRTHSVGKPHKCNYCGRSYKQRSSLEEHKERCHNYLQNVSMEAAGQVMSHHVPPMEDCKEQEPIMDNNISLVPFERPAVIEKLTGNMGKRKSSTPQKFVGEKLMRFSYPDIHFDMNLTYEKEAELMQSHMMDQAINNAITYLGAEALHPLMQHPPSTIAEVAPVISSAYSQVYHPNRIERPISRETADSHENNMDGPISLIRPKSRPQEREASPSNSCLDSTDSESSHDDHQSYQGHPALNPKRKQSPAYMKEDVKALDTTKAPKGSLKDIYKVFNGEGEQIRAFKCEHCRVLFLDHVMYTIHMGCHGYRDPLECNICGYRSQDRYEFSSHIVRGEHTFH
Sequence of UniProt Q96SW2 (whole entry, looked up): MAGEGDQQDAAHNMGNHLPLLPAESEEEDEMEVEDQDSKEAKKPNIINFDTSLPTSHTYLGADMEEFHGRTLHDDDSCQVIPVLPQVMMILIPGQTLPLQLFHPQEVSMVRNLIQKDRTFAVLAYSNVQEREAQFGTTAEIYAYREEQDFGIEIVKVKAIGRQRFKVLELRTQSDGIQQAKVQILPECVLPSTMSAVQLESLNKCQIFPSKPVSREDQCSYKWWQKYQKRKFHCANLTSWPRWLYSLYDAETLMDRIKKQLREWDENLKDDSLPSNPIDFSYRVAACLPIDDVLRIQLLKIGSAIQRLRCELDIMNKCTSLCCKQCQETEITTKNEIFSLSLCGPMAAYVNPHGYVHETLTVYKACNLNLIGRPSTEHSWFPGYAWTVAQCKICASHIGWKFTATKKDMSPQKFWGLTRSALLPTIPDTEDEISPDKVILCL
Mode: degrader
Method: HiBiT
Cell line: HEK293
Tested at: 3333.33 nM
With `O=C1CCC(N2Cc3c(ccc4c3OCC43CCN(Cc4ccccc4)C3)C2=O)C(=O)N1` (centres unmarked) the protein remaining was 67.4%.
With `O=C1CCC(N2Cc3c(ccc4c3OCC43CCN(Cc4ccccc4)CC3(F)F)C2=O)C(=O)N1` (centres unmarked) the protein remaining was 32.3%.
`O=C1CCC(N2Cc3c(ccc4c3OCC43CCCN(Cc4ccccc4)CC3)C2=O)C(=O)N1` (centres unmarked) has a protein remaining of 94.8%.
The protein remaining of `O=C1CCC(N2Cc3c(ccc4c3OCC43CCN(Cc4ccccn4)CC3)C2=O)C(=O)N1` (centres unmarked) is reported as 48%.
`O=C1CCC(N2Cc3c(ccc4c3OCC43CCN(Cc4ccsc4)CC3)C2=O)C(=O)N1` (centres unmarked) gave a protein remaining of 25.1%.
With `O=C1CCC(N2Cc3c(ccc4c3OCC43CCN(CC4CCCCC4)CC3)C2=O)C(=O)N1` (centres unmarked) the protein remaining was 41.4%.

Further values, each from its own experiment
Read-out: cell-free assay
Method: competition with immobilised ligand
Tested at: 1 µM
`COc1ccc2c(O[C@@H]3C[C@H]4C(=O)N[C@]5(C(=O)O)CC5/C=C\CCCCC[C@H](NC(=O)OC5CCCC5)C(=O)N4C3)cc(-c3csc(NC(=O)C(C)C)n3)nc2c1C` (some centres unmarked) gave a remaining binding of 94% (pknB (Mycobacterium tuberculosis, UniProt P9WI81)).
The remaining binding of `CC1=C(C#N)C(c2ccc3c(c2)c(NC(=O)c2ccccc2C)nn3C)C(C#N)=C(C)N1` is reported as 84% (CRK2 (Plasmodium falciparum, UniProt P61075)).

Some of these lines once more (study 3):
The protein remaining of `O=C1CCC(N2Cc3c(ccc4c3OCC43CCN(Cc4ccccn4)CC3)C2=O)C(=O)N1` (centres unmarked) is reported as 48%.
`O=C1CCC(N2Cc3c(ccc4c3OCC43CCN(Cc4ccsc4)CC3)C2=O)C(=O)N1` (centres unmarked) gave a protein remaining of 25.1%.
